Results collected from several papers.
A part holds a random share of what one study measured. Substitutions count along the parent as printed.

Set 1 — technique: competition protein-binding microarray; molecule type: double-stranded DNA, one strand shown; sample: in vitro; concentration: 2 µM; with: Cbf1 competitor, 0.05 µM; direction: higher = stronger binding
Target: Phosphate system positive regulatory protein PHO4, full length, GST-tagged (PHO4, Saccharomyces cerevisiae, UniProt P07270, residues 1-312)
Setting: whole 60-bp probe, lowest competitor level
Residues (chain): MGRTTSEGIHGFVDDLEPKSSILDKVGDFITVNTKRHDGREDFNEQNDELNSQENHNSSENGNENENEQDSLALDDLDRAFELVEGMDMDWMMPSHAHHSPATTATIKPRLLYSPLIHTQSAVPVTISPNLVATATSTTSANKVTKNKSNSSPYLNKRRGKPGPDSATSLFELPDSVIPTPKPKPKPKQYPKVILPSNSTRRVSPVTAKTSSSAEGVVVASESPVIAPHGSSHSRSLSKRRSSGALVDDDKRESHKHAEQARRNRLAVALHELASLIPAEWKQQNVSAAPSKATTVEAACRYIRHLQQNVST
| Strand | fluorescence intensity |
| --- | --- |
| AATCACAGATTGTTAGCCTGATGTATACAGTAAATTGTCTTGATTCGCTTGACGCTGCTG | 3360 a.u. |
| CGGGGTTAAGTTTGGTGTGTGGGTGGCTTGCAGCAGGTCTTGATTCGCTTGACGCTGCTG | 5500 a.u. |
| TACATCTATTATATTCACGTGCAAAGCATTTTCAGCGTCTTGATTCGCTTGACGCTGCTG | 15500 a.u. |
| GAGCAGTTCTGTAACCAGATCTCTTGTGTTGCTTGGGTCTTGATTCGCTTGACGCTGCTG | 2690 a.u. |
| GTCTTGTCTCATTGGTACGTGGGTGTCCCCACTTCAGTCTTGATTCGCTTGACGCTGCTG | 7000 a.u. |
| TCTCGTAAAATCCTGCGCATGTTAAATAGCCGCCGAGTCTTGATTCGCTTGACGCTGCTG | 6010 a.u. |
| TGGTTAACTAAACGTAATGTGACAGTATCATTGAAAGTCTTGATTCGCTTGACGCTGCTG | 4220 a.u. |
| CCACAATCACTAGACCATGTGATTTGTATTTTTCGGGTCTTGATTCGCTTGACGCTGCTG | 9290 a.u. |
| CATACCCAACCTTTTCACGTGGAATAAGATATTTGTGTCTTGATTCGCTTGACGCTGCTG | 13600 a.u. |
| CGTCCTAGTGATTGTCACGTGGGTGCCATGAGGAAGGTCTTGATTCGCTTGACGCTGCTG | 18200 a.u. |
| TAGTCAAGTAGCCATCACGTGAGGATAATATATTACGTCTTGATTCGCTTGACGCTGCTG | 12100 a.u. |
| ACCCTGCCCTCATATCACCTGCGTTTCCGTTAAACTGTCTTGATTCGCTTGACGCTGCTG | 5420 a.u. |
| ATCACTACCAAGAATAACGTGACGGTGCATAGGAGCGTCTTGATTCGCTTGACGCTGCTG | 7750 a.u. |
| CGGGGTTAAGTTTGCACTGTGGGTGGCTTGCAGCAGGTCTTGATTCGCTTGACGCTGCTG | 5050 a.u. |
| AAGAAGGCATTCCTCCACGTGACGGAAGACTTTGGAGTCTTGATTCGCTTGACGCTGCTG | 14200 a.u. |
| TGGCATGAGTGGCAGCATGTGCCTCATATCCATTGGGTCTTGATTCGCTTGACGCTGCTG | 12700 a.u. |
| GCAGAGGAGATCAGTCTCGTGAAGTGGATGGTTTCCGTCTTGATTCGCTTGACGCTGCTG | 4220 a.u. |
| TGCTGCATTTCTCACCACGTCCTGGTGGGAGTTTCCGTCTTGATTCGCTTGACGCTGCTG | 4910 a.u. |

Set 2 — technique: RNA Bind-n-Seq; molecule type: RNA; sample: in vitro; concentration: 200 nM; setting: whole 134-nt RNA, ends assumed; with: 150 mM KCl; relative to: input library; direction: higher = stronger binding
Target: Ras GTPase-activating protein-binding protein 1, full length (G3BP1, Homo sapiens, UniProt Q13283)
UniProt Q13283, sequence (whole entry, looked up): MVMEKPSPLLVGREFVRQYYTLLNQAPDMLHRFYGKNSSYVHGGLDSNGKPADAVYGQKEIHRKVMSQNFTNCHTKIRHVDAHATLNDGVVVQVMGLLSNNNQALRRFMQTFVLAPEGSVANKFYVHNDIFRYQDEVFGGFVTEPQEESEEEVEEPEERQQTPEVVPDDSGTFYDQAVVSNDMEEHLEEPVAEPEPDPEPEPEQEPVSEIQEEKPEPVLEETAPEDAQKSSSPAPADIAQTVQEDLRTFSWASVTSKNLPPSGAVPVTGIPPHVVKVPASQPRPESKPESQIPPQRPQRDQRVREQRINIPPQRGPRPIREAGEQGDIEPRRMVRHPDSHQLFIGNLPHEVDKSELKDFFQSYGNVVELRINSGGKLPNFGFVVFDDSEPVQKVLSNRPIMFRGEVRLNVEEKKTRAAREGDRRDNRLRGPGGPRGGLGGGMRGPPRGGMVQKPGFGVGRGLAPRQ
| Strand | log2 enrichment |
| --- | --- |
| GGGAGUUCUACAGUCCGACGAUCUGGCCCUGGUGGCAUGCGGGGAUGAAGAGGUGGCCUCAUGGAUCGUGGUGGUCCCGGUGGAAUGUUCAGAGGUGGCCGUGGUGGAGACAGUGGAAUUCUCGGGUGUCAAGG | 0.483 |
| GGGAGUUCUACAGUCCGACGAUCUCAAGUCCUGUGCUACACAUCGUAUGUACCGAAUCGGUGGUUUGGUUUUUUUGGAAAGUAUUAUGUUACGCCGUUCGGAUCUGCACUUCCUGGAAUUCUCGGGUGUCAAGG | -0.784 |
| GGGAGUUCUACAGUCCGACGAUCUCCUCAAGUCCUGUGCUACACAUCGUAUGUACCGAAUCGGAAAGGAGGAGGAAAGUAUUAUGUUACGCCGUUCGGAUCUGCACUUCCAGCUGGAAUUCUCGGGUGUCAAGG | -0.788 |
| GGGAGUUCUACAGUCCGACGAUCCCUGUGCUACACAUCGUAUGUACCGAAUCGGGGUUUUUUGGGGUUUUUUGGUUUUUUGGGGAAAGUAUUAUGUUACGCCGUUCGGAUCUGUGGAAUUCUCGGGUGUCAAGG | -0.603 |
| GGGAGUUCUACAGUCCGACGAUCUCCUCAAGUCCUGUGCUACACAUCGUAUGUACCGAAUCGGGUGGUGGGUGGGAAAGUAUUAUGUUACGCCGUUCGGAUCUGCACUUCCAGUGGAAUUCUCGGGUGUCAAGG | 1.23 |
| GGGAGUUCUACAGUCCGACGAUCAAGUCCUGUGCUACACAUCGUAUGUACCGAAUCGGGGUUUUGGUUUUGGGGUUUUGGAAAGUAUUAUGUUACGCCGUUCGGAUCUGCACUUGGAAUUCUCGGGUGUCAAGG | -0.763 |
| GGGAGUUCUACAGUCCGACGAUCGCAGGAAGUAAAAACAAAUGGAAAUGCUUCGGAUAGUGGCAGGGGUGGGGGUUGCUGAGGAAAGGGUGGGAUGGGAGUGGGUAAAGAGUUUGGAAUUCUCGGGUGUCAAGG | 1.06 |
| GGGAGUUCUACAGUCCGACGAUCCCUGUGCUACACAUCGUAUGUACCGAAUCGGCCCCCCCGGGCCCCCCCGGGCCCCCCCGGAAAGUAUUAUGUUACGCCGUUCGGAUCUGCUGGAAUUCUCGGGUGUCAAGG | -0.123 |
| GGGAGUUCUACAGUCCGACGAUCUCCUGUGCUACACAUCGUAUGUACCGAAUCGGGGAAAAAAAGGGGUUUUUGGGGUGGGGAAAGUAUUAUGUUACGCCGUUCGGAUCUGCAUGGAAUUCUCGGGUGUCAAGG | 0.625 |
| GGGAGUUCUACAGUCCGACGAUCUCAAGUCCUGUGCUACACAUCGUAUGUACCGAAUCGGGGCCCGGGCCCGGCCCGGAAAGUAUUAUGUUACGCCGUUCGGAUCUGCACUUCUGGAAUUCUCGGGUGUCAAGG | -0.876 |

Set 3 — technique: DHFR PCA, deep sequencing; sample: yeast; with: (+)-ABA 200 µM; relative to: wild-type fitted maximum; direction: higher = stronger binding
Target: ABI1, truncated, D143A, DHFR fusion (Arabidopsis thaliana)
Setting: methotrexate growth selection, single substitutions
Parent: PYL1, truncated, DHFR fusion (Arabidopsis thaliana); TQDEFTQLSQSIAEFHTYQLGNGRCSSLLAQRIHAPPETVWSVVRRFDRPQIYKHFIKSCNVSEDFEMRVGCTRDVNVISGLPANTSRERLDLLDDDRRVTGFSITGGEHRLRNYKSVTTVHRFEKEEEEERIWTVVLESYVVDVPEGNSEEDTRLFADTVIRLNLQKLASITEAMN
| Substitution | relative binding score [%] |
| --- | --- |
| N77L | 100 |
| I52G | 93.2 |
| D48W | 36.2 |
| E67R | 98.6 |
| N149T | 78.8 |
| V143W | -9.3 |
| L156V | 97.5 |
| C60G | 10.1 |
| R24K | 109 |
| V43E | 19.5 |
| T86H | 95.9 |
| D65M | 94.9 |
| A158D | 9.04 |
| R90E | 82.3 |
| R32M | 89.5 |
| D153P | 3.45 |
| E64D | 104 |
| L8E | 66.4 |
| L112I | 51.4 |
| A175E | 102 |
| T101E | 15.7 |
| D144A | 68.5 |
| R132Q | 110 |
| T120S | 107 |
| F66P | 84.7 |

Set 4 — target: CCNB2, cyclin fold, Cln2 fusion (human); technique: yeast growth competition, sequencing; sample: yeast; setting: weak parent motif; relative to: not given; direction: higher = stronger binding
Parent: INSM1 docking peptide (human); PKAIRKLHFEDEV
| Substitution | normalised enrichment score |
| --- | --- |
| F9S | 0.299 |
| A3H | 0.259 |
| L7T | 0.361 |
| E10A | 0.46 |
| R5C | 0.38 |
| E12D | 0.266 |
| E10Q | 0.199 |
| K6H | 0.542 |
| R5T | 0.0796 |
| E10N | 0.23 |
| R5H | -0.109 |
| K6Y | 0.512 |
| L7D | -0.176 |
| E10K | 0.356 |
| L7H | 0.144 |
| I4E | 0.00165 |
| K6S | -0.168 |
| R5F | -0.552 |
| K6I | 0.173 |
| H8R | 0.278 |
| K2T | 0.402 |

A few entries again (set 3):
| Substitution | relative binding score [%] |
| --- | --- |
| I52G | 93.2 |
| D48W | 36.2 |
| E67R | 98.6 |
| N149T | 78.8 |
| V143W | -9.3 |
